Literature values that unrelated publications cite.
Compare with care: the assays were run in different laboratories. ≈ marks a conversion by molar mass, not a printed value.

| SMILES | tested on | test | system | setting | endpoint | result |
| --- | --- | --- | --- | --- | --- | --- |
| Cc1nc(C)c(-c2ccc(C(=O)c3ccccc3)cc2)c(O)c1Br | Plasmodium falciparum | whole cell extended time | 3D7 | 72 h | IC50 | 0.78 µM |
| C[C@H]1COCCN1c1nc(-c2cnc(N)cc2C(F)F)nc(N2CCOCC2)n1 | MOLT-4 | – | – | – | GI50 | 0.212 µM |
| COc1ccccc1Oc1cccc(CN2CCC(NC(=O)C(CCN3CCCC3)c3ccccc3)CC2)c1 (stereo not shown) | human CCR8 F112A mutant (TM3) | IP accumulation, agonist | – | – | EC50 | 0.0071 µM |
| Clc1ccc2c(NN=Cc3cccs3)ccnc2c1 | Plasmodium falciparum | whole cell extended time | 3D7 | 72 h | IC50 | 0.92 µM |
| CCNS(=O)(=O)c1ccc(OC)cc1C1(O)CCN(Cc2cccc(Oc3ccccc3OC)c2)CC1 | human CCR8 G206A mutant (TM5) | IP accumulation, agonist | – | – | EC50 | no effect |
| O=C(Nc1nc2ccccc2[nH]1)c1ccccc1 | HSP90α | – | – | 5.9 µM, PubChem AID 1846 | response | 57% |
| COc1ccccc1Oc1cccc(CN2CCC(NC(=O)C3CC(=O)Nc4ccccc43)CC2)c1 (stereo not shown) | human CCR8 S110H mutant (TM3) | IP accumulation, agonist | – | – | EC50 | > 10 µM |
| CC1(C)S[C@@H]2[C@H](NC(=O)[C@H](N)c3ccccc3)C(=O)N2[C@H]1C(=O)O | Klebsiella pneumoniae | – | clinical isolate RKI-No_320/16 | – | MIC | ≤ 4 mg/L |
| Cc1[nH]c(C)c(C2CCC(c3ccc(Cl)cc3)CC2)c(=O)c1Cl (stereo not shown) | Plasmodium falciparum | whole cell extended time | 3D7 | 72 h | IC50 | 0.05 µM |
| COc1ccccc1Oc1cccc(CN2CCC(O)(c3ccccc3C(=O)O)CC2)c1 | human CCR8 Y113A mutant (TM3) | IP accumulation, agonist | – | – | EC50 | > 10 µM |
| Cc1cc(=O)c(-c2ccc(Oc3cccc(Cl)c3)cc2)c(C)[nH]1 | Plasmodium falciparum | whole cell extended time | 3D7 | 72 h | IC50 | 0.6 µM |
| COc1ccccc1Oc1cccc(CN2CCC3(CC2)C(=O)NCN3CCc2ccccc2)c1 | human CCR8 S262A mutant (TM6) | IP accumulation, agonist | – | – | EC50 | 0.021 µM |
| Nc1cc(C(F)(F)F)c(-c2nc(N3CCOCC3)nc(N3CCOCC3)n2)cn1 | MG-63 | – | – | – | GI50 | 0.535 µM |
| CNC(C)C1CCC(N)C(OC2C(N)CC(N)C(OC3OCC(C)(O)C(NC)C3O)C2O)O1 (stereo not shown) | Enterobacter cloacae | – | clinical isolate RKI 1026/14-1 | – | MIC | 1 mg/L (≈ 2.09 µM) |
| Cc1[nH]c(C)c([N+](=O)[O-])c(=O)c1-c1ccc(Oc2ccccc2)cc1 | Plasmodium falciparum | whole cell extended time | 3D7 | 72 h | IC50 | 0.27 µM |
| Nc1cccc2c1C(=O)N(C1CCC(=O)NC1=O)C2=O (stereo not shown) | – | – | relapsed refractory multiple myeloma patients | dose not given | median duration of response | 8.3 months |

A few entries again:
| SMILES | tested on | test | system | setting | endpoint | result |
| --- | --- | --- | --- | --- | --- | --- |
| COc1ccccc1Oc1cccc(CN2CCC(NC(=O)C3CC(=O)Nc4ccccc43)CC2)c1 (stereo not shown) | human CCR8 S110H mutant (TM3) | IP accumulation, agonist | – | – | EC50 | > 10 µM |
